{"data": "Measured values pooled from the literature", "note": "Compare with care: the assays were run in different laboratories. ± gives the spread as reported."}
{"SMILES": "COc1cc2nc(NC3CCN(Cc4ccc(S(N)(=O)=O)cc4)CC3)nc(Oc3c(C)cc(C#N)cc3C)c2cc1OC", "cell line": "TZM-bl", "assay": "cell growth or viability, XTT", "CC50": "8.79 µM"}
{"SMILES": "O=c1ccn([C@@H]2O[C@H](CO)[C@@H](O)[C@H]2F)c(=O)[nH]1", "cell line": "SkMC", "assay": "sulforhodamine B", "setting": "11 days, glucose medium", "CC50": "> 250 µM"}
{"SMILES": "C#CCO[C@H]1C[C@H]2[C@@H](C)C[C@H]3OC(=O)C(=C)[C@H]3C[C@]2(C)[C@H]1O", "cell line": "BALB/c mouse splenocytes", "assay": "propidium iodide flow cytometry", "setting": "48 h, 10% fetal calf serum", "CC50": "181 µM"}
{"SMILES": "OC[C@H]1O[C@@H](n2cnc3c(O)ncnc32)[C@H](F)[C@@H]1O", "cell line": "SNB-78", "assay": "cell growth or viability, SRB", "setting": "11 days", "CC50": "> 250 µM"}
{"SMILES": "Cc1cc(C#N)cc(C)c1Oc1nc(NC2CCN(Cc3ccc([N+](=O)[O-])cc3)CC2)nc2ccccc12", "cell line": "TZM-bl", "assay": "cell growth or viability, XTT", "CC50": "> 0.246 µM"}
{"SMILES": "C=C1CCC2Cc3c(O)c(C(=O)C=Cc4ccccc4)c(OC)c(C)c3OC2(C)CCC2C1CC2(C)C (stereo not shown)", "cell line": "HEp-2", "assay": "cell growth or viability", "CC50": "> 50 µM"}
{"SMILES": "Cc1cc(C#N)cc(C)c1Oc1nc(NC2CCN(Cc3ccc(F)cc3)CC2)nc2ccccc12", "cell line": "TZM-bl", "assay": "cell growth or viability, XTT", "CC50": "> 0.26 µM"}
{"SMILES": "C=C1CCC2Cc3c(c(C)c(O)c(C(=O)C=Cc4ccccc4)c3OC)OC2(C)CCC2C1CC2(C)C (stereo not shown)", "cell line": "HEp-2", "assay": "cell growth or viability", "CC50": "> 50 µM"}
{"SMILES": "Cc1cc(C#N)cc(C)c1Oc1nc(NC2CCN(Cc3ccccn3)CC2)nc2ccccc12", "cell line": "TZM-bl", "assay": "cell growth or viability, XTT", "CC50": "> 0.269 µM"}
{"SMILES": "COc1c(C)c(O)c(C)c(O)c1C(=O)C1C(C=C(C)C=O)C=C(C)CC1c1ccccc1 (stereo not shown)", "cell line": "HEp-2", "assay": "cell growth or viability", "CC50": "> 50 µM"}
{"SMILES": "Cc1cc2c(C(N)=O)cccc2n1-c1nc2c(c(NCc3ccccc3)n1)COCC2", "cell line": "human foreskin fibroblasts", "assay": "MTS", "setting": "6 days", "CC50": "0.5 µM"}
{"SMILES": "COc1c(C)c(O)c(C)c(O)c1C(=O)C1C(CC=C(C)C=O)C(C)=CCC1c1ccccc1 (stereo not shown)", "cell line": "HEp-2", "assay": "cell growth or viability", "CC50": "> 50 µM"}
{"SMILES": "CCc1c(CC2CCCCC2)nc(SCC(=O)c2ccccc2)[nH]c1=O", "cell line": "TZM-bl", "assay": "cell growth or viability", "setting": "72 h", "CC50": "> 200 µM"}
{"SMILES": "CC1(C)C(=O)C(=C(O)C=Cc2ccccc2)C(=O)C2=C1OC1(CC2)CCC2CC1C2(C)C (stereo not shown)", "cell line": "HEp-2", "assay": "cell growth or viability", "CC50": "> 50 µM"}
{"SMILES": "Cc1cc(C#N)cc(C)c1Oc1nc(NC2CCN(Cc3ccc(C(N)=O)cc3)CC2)nc2ncccc12", "cell line": "TZM-bl", "assay": "cell growth or viability, XTT", "CC50": "44.1 µM"}
{"SMILES": "C/C=C/CNC(=N)NCCCCCCCCN1CCCc2ccccc2COc2ccccc2CNC(=N)NC1=O", "cell line": "normal human dermal fibroblasts", "assay": "MTT", "setting": "48 h", "CC50": "36.2 ± 1.86 µg/mL"}
{"SMILES": "COc1cc2nc(NC3CCN(Cc4ccc(S(C)(=O)=O)cc4)CC3)nc(Oc3c(C)cc(C#N)cc3C)c2cc1OC", "cell line": "TZM-bl", "assay": "cell growth or viability, XTT", "CC50": "9.14 µM"}
{"SMILES": "Nc1ncnc2c1ncn2[C@@H]1O[C@H](CO)[C@@H](O)[C@H]1F", "cell line": "SNB-78", "assay": "cell growth or viability, SRB", "setting": "11 days", "CC50": "108 µM"}
{"SMILES": "C=C1C(=O)O[C@@H]2C[C@H](C)[C@@H]3C[C@H](O)[C@H](O)[C@@]3(C)C[C@H]12", "cell line": "BALB/c mouse splenocytes", "assay": "propidium iodide flow cytometry", "setting": "48 h, 10% fetal calf serum", "CC50": "29.4 µM"}
{"SMILES": "C=C1CC[C@@H]2CC3=C(O[C@@]2(C)CC[C@@H]2[C@@H]1CC2(C)C)C(C)(C)C(=O)/C(=C(O)\\C=C\\c1ccccc1)C3=O", "cell line": "HEp-2", "assay": "cell growth or viability", "CC50": "> 50 µM"}
{"SMILES": "Cc1cc(C#N)cc(C)c1Oc1nc(NC2CCN(Cc3ccc(S(N)(=O)=O)cc3)CC2)nc2cccnc12", "cell line": "TZM-bl", "assay": "cell growth or viability, XTT", "CC50": "53.5 µM"}
{"SMILES": "Cc1nc([C@@H](NC(=O)c2ccc(-c3ccc(Cl)cc3)[nH]2)[C@H]2CCCCN2)sc1CO", "cell line": "TZM-bl", "assay": "cell growth or viability, XTT", "CC50": "~30 µM"}
{"SMILES": "Nc1ccn([C@@H]2O[C@H](CO)[C@@H](O)[C@H]2F)c(=O)n1", "cell line": "SNB-78", "assay": "cell growth or viability, SRB", "setting": "11 days", "CC50": "> 250 µM"}
{"SMILES": "C/C=C/CNC(=N)NCCCCCCCCN1CCCc2ccc(F)cc2COc2ccccc2CNC(=N)NC1=O", "cell line": "normal human dermal fibroblasts", "assay": "MTT", "setting": "48 h", "CC50": "24.9 ± 1.07 µg/mL"}
{"SMILES": "CC(C)=CCC1CC(=O)C(C)=CC2C=C(C)CC(c3ccccc3)C2C(=O)C2=C(O)C(C)(CC=C1C)C(=O)C(C)(C)C2=O (stereo not shown)", "cell line": "HEp-2", "assay": "cell growth or viability", "CC50": "> 50 µM"}
{"SMILES": "C#CCO[C@H]1C[C@H]2[C@@H](C)C[C@H]3OC(=O)C(=C)[C@H]3C[C@]2(C)[C@H]1OCC#C", "cell line": "BALB/c mouse splenocytes", "assay": "propidium iodide flow cytometry", "setting": "48 h, 10% fetal calf serum", "CC50": "93.5 µM"}
{"SMILES": "CC(C)C1CCC(C)C23CC4CC5=C(OC4(C)C2C13)C(C)(C)C(=O)C(=C(O)C=Cc1ccccc1)C5=O (stereo not shown)", "cell line": "HEp-2", "assay": "cell growth or viability", "CC50": "> 50 µM"}
{"SMILES": "Cc1cc(C#N)cc(C)c1Oc1nc(NC2CCN(Cc3cccc(Br)c3)CC2)nc2ccccc12", "cell line": "TZM-bl", "assay": "cell growth or viability, XTT", "CC50": "> 0.231 µM"}
{"note": "A few entries again:"}
{"SMILES": "Cc1cc(C#N)cc(C)c1Oc1nc(NC2CCN(Cc3ccc([N+](=O)[O-])cc3)CC2)nc2ccccc12", "cell line": "TZM-bl", "assay": "cell growth or viability, XTT", "CC50": "> 0.246 µM"}
{"SMILES": "C=C1CCC2Cc3c(O)c(C(=O)C=Cc4ccccc4)c(OC)c(C)c3OC2(C)CCC2C1CC2(C)C (stereo not shown)", "cell line": "HEp-2", "assay": "cell growth or viability", "CC50": "> 50 µM"}
{"SMILES": "Cc1cc(C#N)cc(C)c1Oc1nc(NC2CCN(Cc3ccc(F)cc3)CC2)nc2ccccc12", "cell line": "TZM-bl", "assay": "cell growth or viability, XTT", "CC50": "> 0.26 µM"}
{"SMILES": "C=C1CCC2Cc3c(c(C)c(O)c(C(=O)C=Cc4ccccc4)c3OC)OC2(C)CCC2C1CC2(C)C (stereo not shown)", "cell line": "HEp-2", "assay": "cell growth or viability", "CC50": "> 50 µM"}
{"SMILES": "Cc1cc(C#N)cc(C)c1Oc1nc(NC2CCN(Cc3ccccn3)CC2)nc2ccccc12", "cell line": "TZM-bl", "assay": "cell growth or viability, XTT", "CC50": "> 0.269 µM"}
